# Results collected from several papers.
# “And” joins repeats or separate records; there may be more than shown. Numbers after ± are the reported error.
# odorant-binding protein 24: odorant-binding protein 24 (Monochamus alternatus, UniProt A0A1I9HZN3)
# Mapk1: Mitogen-activated protein kinase 1 (Mapk1, Rattus norvegicus, UniProt P63086)
# HRH4: Histamine H4 receptor (HRH4, Homo sapiens, UniProt Q9H3N8)
# LRRK2 G2019S: Leucine-rich repeat serine/threonine-protein kinase 2 (LRRK2, Homo sapiens, UniProt Q5S007, G2019S)
# Adcy2/ADCY5 C1/C2 domains: Adcy2/ADCY5, C1/C2 domains (Rattus norvegicus, UniProt P26769+P30803)
# SNCA fibrils: Alpha-synuclein, fibrils (SNCA, Homo sapiens, UniProt P37840)
# HTR1A: 5-hydroxytryptamine receptor 1A (HTR1A, Homo sapiens, UniProt P08908)
# ADORA2A: Adenosine receptor A2a (ADORA2A, Homo sapiens, UniProt P29274)
# SLC18A3: Vesicular acetylcholine transporter (SLC18A3, Homo sapiens, UniProt Q16572)
Molecule,target,test,system,conditions,Ki
O=P(O)(O)OC[C@H]1N[C@H](COP(=O)(O)O)[C@@H](O)[C@@H]1O,"Adenine phosphoribosyltransferase 1 (APT1, Saccharomyces cerevisiae, UniProt P49435)","enzyme activity, competitive inhibitor",,"pH 7.5, 25 °C, with: 2,6-diaminopurine 250 µM, PRPP 250 µM",8.7 ± 1.5 µM
CC(=O)C1CCCN1S(=O)(=O)c1ccc(C)cc1 (centres unmarked),"Alpha-glucosidase MAL12 (MAL12, Saccharomyces cerevisiae S288c, UniProt P53341)","enzyme activity, inhibitor, absorbance",,,5610 µM
C=C(C)[C@@H]1CC=C(C)CC1,odorant-binding protein 24,"binding, competitive fluorescence binding",,"pH 5, with: 1-NPN",> 50 µM
CC(=O)N[C@@H](Cc1ccc(O)cc1)C(=O)N[C@@H](C)C(=O)N1CCC[C@H]1C(=O)N[C@@H](CCCNC(=N)N)C(=O)N[C@@H](C)C(=O)N1CCC[C@H]1C(=O)N[C@@H](C)C(=O)N[C@@H](CCCCN)C(=O)N[C@@H](CC(C)C)C(=O)N[C@@H](C)C(=O)N[C@@H](Cc1ccccc1)C(=O)N[C@@H](CCC(N)=O)C(=O)N[C@@H](Cc1ccccc1)C(=O)N1CCC[C@H]1C(=O)N[C@@H](CO)C(=O)N[C@@H](CCCNC(=N)N)C(N)=O,Mapk1,competitive vs substrate,,"with: MgATP 1 mM, varied Sub-F",26 ± 5 µM
(+)-limonene oxide,odorant-binding protein 24,competitive fluorescence binding,,"pH 7.4, with: 1-NPN",37.7 ± 5.37 µM
CC(=O)N[C@@H](Cc1ccccc1)C(=O)N[C@@H](CCC(N)=O)C(=O)N[C@@H](CCCNC(=N)N)C(=O)N[C@@H](CCCCN)C(=O)N[C@H](C(=O)N[C@@H](CC(C)C)C(=O)N[C@@H](CCC(N)=O)C(=O)N[C@@H](CCCNC(=N)N)C(=O)N[C@@H](CCCNC(=N)N)C(=O)N[C@@H](CC(N)=O)C(=O)N[C@@H](CC(C)C)C(=O)N[C@@H](CCCCN)C(=O)NCC(=O)N[C@@H](CC(C)C)C(=O)N[C@@H](CC(N)=O)C(=O)N[C@@H](CC(C)C)C(=O)N[C@@H](CC(N)=O)C(=O)N[C@@H](CC(C)C)C(N)=O)[C@@H](C)O,Mapk1,competitive vs substrate,,"with: MgATP 1 mM, varied Sub-D",20 ± 4 µM
N=C(NCCCCCCCCCCCCN)NCCCc1c[nH]cn1,HRH4,"ligand displacement, radioligand",,cell membranes,0.0692 µM
Nc1ncnc2c1ncn2[C@@H]1O[C@H](COP(=O)(O)OP(=O)(O)O)[C@@H](O)[C@H]1O,LRRK2 G2019S,"kinase activity, inhibitor, radiometric",,"Ki,e, variable LRRKtide",300 ± 30 µM
CC(C)(c1ccc(O)cc1)c1ccc(OCc2cccc(COc3ccc(C(=N)N)cc3)c2)cc1,"Leukotriene B4 receptor 1 (Cavia porcellus, UniProt H0VYV8, H83G/K88G/S309A)",displacement of LTB4,membrane fraction,H83G/K88G mutant,0.0058 µM
O=c1[nH]cnc2c1ncn2[C@@H]1O[C@H](CO)[C@@H](O)[C@H]1O,P1-type nucleoside transporter,"thymidine uptake, inhibitor","Trypanosoma brucei brucei, bloodstream form","15 min, with: [3H]-thymidine",1.6 ± 0.6 µM
(+)-β-pinene,odorant-binding protein 24,competitive fluorescence binding,,"pH 7.4, with: 1-NPN",> 50 µM
c1cc2c(cc1C1CCCCC1)c1c3n2CCNC3CCC1 (centres unmarked),"Amine oxidase [flavin-containing] A (MAOA, Homo sapiens, UniProt P21397, S209E)","enzyme activity, competitive inhibitor, Amplex Red coupled",,"S209E mutant, with: p-CF3-benzylamine",16.1 ± 0.57 µM
COc1ccc(O)c(C(=O)/C=C/c2ccccc2)c1,GABA-A receptor benzodiazepine site (rat),binding,rat cerebral cortex membranes,with: [3H]flunitrazepam,45.7 ± 1.3 µM
MANT-UTP,Adcy2/ADCY5 C1/C2 domains,"enzyme activity, inhibitor",,with: 10 mM MnCl2 and 100 µM forskolin,0.058 ± 0.0084 µM
O=c1cc[nH]c(=O)[nH]1,P1-type nucleoside transporter,"thymidine uptake, inhibitor","Trypanosoma brucei brucei, bloodstream form","15 min, with: [3H]-thymidine",> 2500 µM
N=C(N)NCCCCNC(=N)NCCCc1c[nH]cn1,HRH4,"ligand displacement, radioligand",,cell membranes,0.0309 µM
Nc1ccc(C(=O)/C=C/c2ccccc2)cc1,GABA-A receptor benzodiazepine site (rat),binding,rat cerebral cortex membranes,with: [3H]flunitrazepam,< 6 µM and 6.1 µM and ~6 µM
N=C(N)NCCCCCCCCCCNC(=N)NCCCc1c[nH]cn1,HRH4,"ligand displacement, radioligand",,cell membranes,0.0316 µM
COc1ccc(/C=C/c2cc(-c3nccs3)[nH]n2)cc1,SNCA fibrils,"fibril binding, thioflavin T competition",,"1 µM fibrils, with: thioflavin T 3 µM",0.059 ± 0.0113 µM
Nc1ncnc2c1ncn2[C@@H]1O[C@H](COP(=O)(O)OP(=O)(O)O)[C@@H](O)[C@H]1O,Mapk1,ATP-competitive component,,"with: substrate Sub-D 20 µM, varied MgATP",91 ± 25 µM
CNc1ccccc1C(=O)O[C@H]1C[C@H](n2cnc3c(N)ncnc32)O[C@@H]1COP(=O)(O)OP(=O)(O)OP(=O)(O)O,Adcy2/ADCY5 C1/C2 domains,"adenylyl cyclase activity, inhibitor, purified enzyme",,"with: 10 mM MnCl2, 100 µM forskolin, no Gsα-GTPγS",2.1 ± 0.16 µM
N=C(NCCCCCCN)NCCCc1c[nH]cn1,HRH4,"ligand displacement, radioligand",,cell membranes,0.437 µM
Nc1ncnc2c1ncn2[C@@H]1O[C@H](COP(=O)(O)OP(=O)(O)NP(=O)(O)O)[C@@H](O)[C@H]1O,LRRK2 G2019S,"kinase activity, inhibitor, radiometric",,"Ki,e, variable ATP",400 ± 200 µM
CC1(CCN2CCc3ccccc3C2)Cc2cc(Cl)ccc2C1=O (centres unmarked),HTR1A,radioligand binding,,with: [3H]8-OH-DPAT,1.35 µM
CCCCCn1c(=O)n(CCCCN2CCN(c3ccc(F)cc3)CC2)c2ccccc21,rat opioid receptors,,rat brain membranes,with: [3H]bremazocine,> 10 µM
(+)-fenchone,odorant-binding protein 24,competitive fluorescence binding,,"pH 7.4, with: 1-NPN",13.7 µM and < 20 µM
COc1ccc(-c2nc(SCc3ncc[nH]3)nc(N)c2C#N)cc1,ADORA2A,"ligand displacement, radioligand",,cell membranes,0.044 µM
NC(=S)NCCCc1c[nH]cn1,HRH4,"ligand displacement, radioligand",,cell membranes,1.7 µM
CCOC(=O)C1=CC(C)(C(=O)c2ccccc2)CCC1=O (centres unmarked),"Mitogen-activated protein kinase 8 (MAPK8, Homo sapiens, UniProt P45983)","ligand displacement, FP",,,35.3 µM
Cc1cn([C@H]2C[C@H](O)[C@@H](COP(=O)(O)O)O2)c(=O)[nH]c1=O,"N-glycosylase/DNA lyase (OGG1, Homo sapiens, UniProt O15527)","8-oxoguanine excision, competitive inhibitor",,"pH 7.5, 37 °C, substrate at 2 × Km, with: 22 nM oxoguanine duplex DNA",2000 µM
Nc1nc(F)nc2c1ncn2[C@@H]1O[C@H](COP(=O)(O)OP(=O)(O)OP(=O)(O)O)[C@@H](O)[C@@H]1O,"Ribonucleoside-diphosphate reductase large subunit (Homo sapiens, UniProt P23921)","CDP reductase activity, inhibitor",,"3 min, apparent Ki, with: CDP substrate, ATP effector",6.8 ± 1.3 µM
CS(=O)(=O)c1ccc(C(=O)C2CCN(C3Cc4ccccc4CC3O)CC2)cc1 (racemic),SLC18A3,"ligand displacement, radioligand",,,0.0054 µM
Cc1cccc(NC(=O)c2ccc(Br)cc2)n1,mGluR5,binding,"HEK293T cell membranes, transfected",,> 10 µM
COc1ccc(-c2cc(-c3nccs3)on2)cc1,SNCA fibrils,"fibril binding, thioflavin T competition",,"1 µM fibrils, with: thioflavin T 3 µM",0.134 µM
Cn1c2c(c3ccccc31)CN(CCCCNC(=O)c1nc3ccccc3[nH]1)CC2,HTR1A,cell-free assay,,,0.274 µM
N=C(NCCCCCCCCCCN)NCCCc1c[nH]cn1,HRH4,"ligand displacement, radioligand",,cell membranes,0.166 µM
Nc1nc(Cl)nc2c1ncn2[C@@H]1O[C@H](CO)[C@@H](O)[C@@H]1F,ADORA2A,"ligand displacement, radioligand",,cell membranes,17.1 µM
N=C(NCCCN)NCCCc1c[nH]cn1,HRH4,"ligand displacement, radioligand",,cell membranes,0.0933 µM
NS(=O)(=O)Cc1noc2ccccc12,"Amine oxidase [flavin-containing] A (MAOA, Homo sapiens, UniProt P21397)",inhibitor,,"up to 100 µM, with: kynuramine",no inhibition
Cc1nc(N)sc1CCCNC(=N)NCCCCCCCCCCCCN,HRH4,"ligand displacement, radioligand",,cell membranes,4.68 µM
O=C(c1ccc(SCCF)cc1)C1CCN(C2Cc3ccccc3CC2O)CC1 (racemic),SLC18A3,"ligand displacement, radioligand",,,0.0024 µM

# A few entries again:
Molecule,target,test,system,conditions,Ki
c1cc2c(cc1C1CCCCC1)c1c3n2CCNC3CCC1 (centres unmarked),"Amine oxidase [flavin-containing] A (MAOA, Homo sapiens, UniProt P21397, S209E)","enzyme activity, competitive inhibitor, Amplex Red coupled",,"S209E mutant, with: p-CF3-benzylamine",16.1 ± 0.57 µM
COc1ccc(O)c(C(=O)/C=C/c2ccccc2)c1,GABA-A receptor benzodiazepine site (rat),binding,rat cerebral cortex membranes,with: [3H]flunitrazepam,45.7 ± 1.3 µM
MANT-UTP,Adcy2/ADCY5 C1/C2 domains,"enzyme activity, inhibitor",,with: 10 mM MnCl2 and 100 µM forskolin,0.058 ± 0.0084 µM
O=c1cc[nH]c(=O)[nH]1,P1-type nucleoside transporter,"thymidine uptake, inhibitor","Trypanosoma brucei brucei, bloodstream form","15 min, with: [3H]-thymidine",> 2500 µM
N=C(N)NCCCCNC(=N)NCCCc1c[nH]cn1,HRH4,"ligand displacement, radioligand",,cell membranes,0.0309 µM
